Measured values from different studies.
Several values in a cell are separate wells, animals, samples, runs or records. ± gives the spread as reported.

Cc1ccccc1-c1ccc(-c2nc(-c3ccc(CN(C)CCCC(=O)O)c([18F])c3)no2)cc1C(F)(F)F  tracer uptake (rat, bone; 5 min): 0.3 %ID/g
CC(C)[C@@H]1NC(=O)CNC(=O)[C@H](CC(N)=O)NC(=O)[C@H](CCCNC(=N)N)NC(=O)[C@H](Cc2ccc(O)cc2)NC(=O)[C@H](C(C)C)NC(=O)[C@@H](NC(=O)[C@@H](NC(=O)[C@H](CC(N)=O)NC(=O)[C@H](Cc2c[nH]c3ccccc23)NC(=O)[C@H](C)NC(=O)[C@H](Cc2ccccc2)NC(=O)CNC(=O)[C@H](CCCCN)NC(=O)[C@H](Cc2ccccc2)NC(=O)[C@H](Cc2ccccc2)NC(=O)[C@H](CCCCN)NC(=O)OCC2c3ccccc3-c3ccccc32)C(C)C)CSSC[C@@H](C(=O)N[C@@H](Cc2c[nH]cn2)C(=O)N[C@@H](CCCNC(=N)N)C(=O)N[C@@H](CCCNC(=N)N)C(=O)N[C@@H](C)C(=O)N[C@@H](CC(N)=O)C(N)=O)NC(=O)[C@H](C(C)C)NC(=O)[C@H](CCCNC(=N)N)NC1=O  body posture score (ICR mouse; ip, 10 mg/kg; direction not given): 0
CC(C)C[C@@H](NC(=O)[C@@H](CCCNC(=N)N)NC(=O)[C@@H](Cc1c[nH]cn1)NC(=O)[C@@H](Cc1c[nH]c2ccccc12)NC(=O)[C@@H](Cc1c[nH]cn1)NC(=O)[C@@H](Cc1ccccc1)NC(=O)[C@H](NC(=O)[C@@H](Cc1ccc(O)cc1)NC(=O)CNC(=O)CNC(=O)CCOCCOCCOCCNC(=O)CN1CCN(CC(=O)O)CCN(CC(=O)O)CC1)[C@H](C)O)C(=O)N[C@H](CC(N)=O)C(=O)N1CCC[C@@H]1C(=O)O [gallium-68 labelled]  tissue uptake (C57BL/6 mice, male, kidney; intravenous, 1.85 MBq, 60 min, together with: GP12 blocking): 33.6 ± 3.25 %ID/g
C/C(=N\OCCCN1CCCCC1)c1ccc(C(F)(F)F)cc1  diastolic blood pressure (rhesus monkey; dose not given, after dosing): 69 mmHg and 90 mmHg
CC(C)NCCCn1c(Sc2cc3c(cc2I)OCO3)nc2c(N)ncnc21  tumour concentration (LC-MS/MS; mouse, MDA-MB-468 xenograft, tumour; 5 mg/kg 3 times weekly, 24 h post Wednesday dose): 0.52 ± 0.13 µM
CC(=O)N1c2ccc(-c3ccc(CNC(=O)c4cn5cc(-c6cnc(N)nc6)nc(N6CCOCC6)c5n4)cc3)cc2CC[C@@H]1C  maximum tolerated dose (Eµ-Myc lymphoma cells, mouse, Eµ-Myc lymphoma transplant; intraperitoneal, 3 wk): 45 mg/kg
CSCC[C@H](N)C(=O)N[C@@H](C)C(=O)N[C@@H](CCCNC(=N)N)C(=O)N[C@@H](CCCNC(=N)N)C(=O)N[C@@H](CC(=O)O)C(=O)N[C@@H](CCCCN)C(=O)N[C@H](C(=O)N[C@@H](CC(=O)O)C(=O)N[C@@H](Cc1ccccc1)C(=O)N[C@@H](C)C(=O)N[C@@H](CCCNC(=N)N)C(=O)N[C@@H](CCCNC(=N)N)C(=O)N[C@@H](CCCNC(=N)N)C(=O)N[C@@H](CCCNC(=N)N)C(=O)NCCCCCC(=O)NCCCCC(NC(=O)CCCCCNC(=O)[C@H](CCCNC(=N)N)NC(=O)[C@H](CCCNC(=N)N)NC(=O)[C@H](CCCNC(=N)N)NC(=O)[C@H](CCCNC(=N)N)NC(=O)[C@H](C)NC(=O)[C@H](Cc1ccccc1)NC(=O)[C@H](CC(=O)O)NC(=O)[C@@H](NC(=O)[C@H](CCCCN)NC(=O)[C@H](CC(=O)O)NC(=O)[C@H](CCCNC(=N)N)NC(=O)[C@H](CCCNC(=N)N)NC(=O)[C@H](C)NC(=O)[C@@H](N)CCSC)[C@@H](C)O)C(=O)NCCCCC(NC(=O)C(CCCCNC(=O)CCCCCNC(=O)[C@H](CCCNC(=N)N)NC(=O)[C@H](CCCNC(=N)N)NC(=O)[C@H](CCCNC(=N)N)NC(=O)[C@H](CCCNC(=N)N)NC(=O)[C@H](C)NC(=O)[C@H](Cc1ccccc1)NC(=O)[C@H](CC(=O)O)NC(=O)[C@@H](NC(=O)[C@H](CCCCN)NC(=O)[C@H](CC(=O)O)NC(=O)[C@H](CCCNC(=N)N)NC(=O)[C@H](CCCNC(=N)N)NC(=O)[C@H](C)NC(=O)[C@@H](N)CCSC)[C@@H](C)O)NC(=O)CCCCCNC(=O)[C@H](CCCNC(=N)N)NC(=O)[C@H](CCCNC(=N)N)NC(=O)[C@H](CCCNC(=N)N)NC(=O)[C@H](CCCNC(=N)N)NC(=O)[C@H](C)NC(=O)[C@H](Cc1ccccc1)NC(=O)[C@H](CC(=O)O)NC(=O)[C@@H](NC(=O)[C@H](CCCCN)NC(=O)[C@H](CC(=O)O)NC(=O)[C@H](CCCNC(=N)N)NC(=O)[C@H](CCCNC(=N)N)NC(=O)[C@H](C)NC(=O)[C@@H](N)CCSC)[C@@H](C)O)C(N)=O)[C@@H](C)O (stereo partly shown)  tissue distribution (C57BL/6 mouse female, spleen; dose not given, 6 h; reference: total): 1.26% and 1.04%
CC[C@H](C)[C@H](NC(=O)[C@H](C)NC(=O)[C@H](CCCCN)NC(=O)[C@H](CC(C)C)NC(=O)[C@@H](N)Cc1ccccc1)C(=O)N[C@@H](CCCCN)C(=O)N[C@@H](CCCCN)C(=O)N[C@@H](Cc1ccccc1)C(=O)NCC(=O)N[C@@H](CCCCN)C(=O)N[C@@H](CCC(=O)O)C(=O)N[C@@H](Cc1ccccc1)C(=O)N[C@@H](CCCCN)C(=O)N[C@@H](CCCCN)C(=O)N[C@H](C(=O)NCC(=O)N[C@@H](C)C(=O)N[C@@H](CCCCN)C(=O)N[C@@H](CC(C)C)C(=O)N[C@@H](CCCCN)C(=O)O)[C@@H](C)CC  hemolysis (human red blood cells; 8 mg/L, 1 h, mean of replicates): 0.245%
CSCC[C@H](NC(=O)CNC(=O)[C@H](CCCCN)NC(=O)[C@H](CC(C)C)NC(=O)[C@@H]1CCCN1C(=O)[C@H](CO)NC(=O)[C@H](Cc1c[nH]cn1)NC(=O)[C@H](Cc1c[nH]c2ccccc12)NC(=O)[C@H](CCCNC(=N)N)NC(=O)[C@H](CC(C)C)NC(=O)[C@H](CCCNC(=N)N)NC(=O)[C@H](Cc1c[nH]c2ccccc12)NC(=O)[C@H](CS)NC(=O)CCCCCNC(=O)CN1CCN(CC(=O)O)CCN(CC(=O)O)CCN(CC(=O)O)CC1)C(=O)O [copper-64 labelled]  tumour-to-blood ratio (BALB/c nude mouse, Huh-7 tumour, tumour and blood; intravenous, 1.85 MBq, 2 h, ex vivo biodistribution; reference: tumour over blood): 2.87
CC[C@H](C)[C@H](NC(=O)[C@H](CCCCN)NC(=O)CNC(=O)[C@H](CC(C)C)NC(=O)[C@H](Cc1ccccc1)NC(=O)[C@H](CCCCN)NC(=O)[C@H](CO)NC(=O)[C@H](Cc1ccccc1)NC(=O)[C@H](Cc1c[nH]c2ccccc12)NC(=O)[C@H](CCC(N)=O)NC(=O)[C@@H](NC(=O)[C@H](Cc1ccccc1)NC(=O)CCCCCNC(=O)CN1CCN(CC(=O)O)CCN(CC(=O)O)CCN(CC(=O)O)CC1)C(C)C)C(=O)N[C@@H](CCC(=O)O)C(=O)N1CCC[C@H]1C(=O)N[C@@H](CC(=O)O)C(=O)N[C@H](C(=O)N[C@@H](CO)C(=O)N[C@@H](CCC(N)=O)C(=O)N[C@H](C(=O)N[C@@H](CCC(N)=O)C(=O)N[C@@H](CC(=O)O)C(=O)N1CCC[C@H]1C(=O)N[C@@H](CC(N)=O)C(=O)N[C@@H](CC(=O)O)C(=O)N[C@@H](CCC(N)=O)C(=O)N[C@@H](Cc1ccc(O)cc1)C(=O)N[C@@H](CCC(=O)O)C(=O)N1CCC[C@H]1C(=O)N[C@@H](Cc1ccccc1)C(=O)O)C(C)C)C(C)C [copper-64 labelled]  SUVmean (dynamic PET; mouse both sexes, CT26 tumour, checkpoint inhibitor-treated, tumour; intravenous, 100 µCi/mouse, 690 s): 3.88 SUV
CCCCCCCCCCCCCCCC(=O)N[C@@H](CCC(=O)NCCOCCOCCC(=O)NCCOCCOCCC(=O)NCCCC[C@H](NC(=O)[C@H](CC(=O)O)NC(=O)[C@H](CC(C)C)NC(=O)[C@H](Cc1ccc(O)cc1)NC(=O)[C@H](CCCCN)NC(=O)[C@H](CO)NC(=O)[C@H](Cc1ccc(O)cc1)NC(=O)[C@H](CC(=O)O)NC(=O)[C@H](CO)NC(=O)[C@@H](NC(=O)[C@H](Cc1ccccc1)NC(=O)[C@@H](NC(=O)CNC(=O)[C@H](CCC(N)=O)NC(=O)[C@@H](CO)NC(=O)[C@@H](N)Cc1c[nH]cn1)[C@@H](C)O)[C@@H](C)O)C(=O)N[C@@H](CCCNC(=N)N)C(=O)N[C@@H](CCCNC(=N)N)C(=O)N[C@@H](C)C(=O)N[C@@H](CCC(N)=O)C(=O)N[C@@H](CC(=O)O)C(=O)N[C@@H](Cc1ccccc1)C(=O)N[C@H](C(=O)N[C@@H](CCC(N)=O)C(=O)N[C@@H](Cc1c[nH]c2ccccc12)C(=O)N[C@@H](CC(C)C)C(=O)N[C@@H](CC(C)C)C(=O)N[C@@H](CC(N)=O)C(=O)N[C@H](C(=O)NCC(=O)NCC(=O)N1CCC[C@H]1C(=O)N[C@@H](CO)C(=O)N[C@@H](CO)C(=O)NCC(=O)N[C@@H](C)C(=O)N1CCC[C@H]1C(=O)N1CCC[C@H]1C(=O)N1CCC[C@H]1C(=O)N[C@@H](CO)C(N)=O)[C@@H](C)O)C(C)C)C(=O)O  Cmax (rhesus monkey, female, plasma; subcutaneous, 300 µg/kg, day 1, toxicokinetics, mean): 562 ng/mL
CC[C@H](C)[C@H](NC(=O)[C@H](C)NC(=O)CNC(=O)[C@H](Cc1c[nH]cn1)NC(=O)[C@@H](NC(=O)[C@H](Cc1ccccc1)NC(=O)[C@H](CCCCN)NC(=O)CNC(=O)[C@H](C)NC(=O)[C@H](CCCCN)NC(=O)[C@H](Cc1ccccc1)NC(=O)[C@@H](NC(=O)[C@H](Cc1c[nH]cn1)NC(=O)[C@H](CCCCN)NC(=O)[C@H](Cc1ccccc1)NC(=O)[C@@H](NC(=O)[C@H](CO)NC(=O)CNC(=O)[C@H](Cc1c[nH]c2ccccc12)NC(=O)CNC(=O)[C@H](C)N)[C@@H](C)CC)[C@@H](C)CC)[C@@H](C)CC)C(=O)N[C@@H](CCC(N)=O)C(=O)N[C@@H](C)C(=O)N[C@@H](Cc1c[nH]cn1)C(=O)N[C@@H](CC(N)=O)C(=O)N[C@@H](CC(=O)O)C(N)=O  chronic toxic concentration (zebrafish embryos 4 hpf, E3 medium; 24 h): 5 µM
CC(C)=CCC/C(C)=C/CCn1cc(CC(P(=O)(O)O)P(=O)(O)O)nn1  concentration (mouse CD-1, bile; intravenous, 0.3 mg/kg, 8 h): 9560 ± 1430 ng/mL
CC[C@H](C)[C@H](NC(=O)[C@H](Cc1ccc(O)cc1)NC(=O)[C@@H](NC(=O)[C@H](CCCNC(=N)N)NC(=O)[C@@H](N)CC(=O)O)C(C)C)C(=O)N[C@@H](Cc1c[nH]cn1)C(=O)N1CCC[C@H]1C(=O)O  AUC (Beagle dog, plasma; sc, 10 mg/kg/day, day 0): 914 ± 204 ng·h/mL
COc1ccc(CNc2ccc3c(c2)S(=O)(=O)C=C3)cc1  CD8+ cells (flow cytometry; male C57BL/6 mice, spleen; i.p., 20 mg/kg, 8 days; reference: CD45+ cells): 10.3%
O=C1NC2(CC2)COc2ncc(F)cc2[C@H]2COCCN2c2ccn3ncc1c3n2  organ weight (Sprague-Dawley rat, female, ovaries; oral, 20 mg/kg/day, 4 weeks): 0.127 ± 0.023 g

Excerpt of the above:
CC(=O)N1c2ccc(-c3ccc(CNC(=O)c4cn5cc(-c6cnc(N)nc6)nc(N6CCOCC6)c5n4)cc3)cc2CC[C@@H]1C  maximum tolerated dose (Eµ-Myc lymphoma cells, mouse, Eµ-Myc lymphoma transplant; intraperitoneal, 3 wk): 45 mg/kg
